Results collected from several papers.
“And” joins repeats or separate records; there may be more than shown. ± gives the spread as reported.
TDP1: Tyrosyl-DNA phosphodiesterase 1 (TDP1, Homo sapiens, UniProt Q9NUW8)
UniProt Q9NUW8, sequence (whole entry, looked up): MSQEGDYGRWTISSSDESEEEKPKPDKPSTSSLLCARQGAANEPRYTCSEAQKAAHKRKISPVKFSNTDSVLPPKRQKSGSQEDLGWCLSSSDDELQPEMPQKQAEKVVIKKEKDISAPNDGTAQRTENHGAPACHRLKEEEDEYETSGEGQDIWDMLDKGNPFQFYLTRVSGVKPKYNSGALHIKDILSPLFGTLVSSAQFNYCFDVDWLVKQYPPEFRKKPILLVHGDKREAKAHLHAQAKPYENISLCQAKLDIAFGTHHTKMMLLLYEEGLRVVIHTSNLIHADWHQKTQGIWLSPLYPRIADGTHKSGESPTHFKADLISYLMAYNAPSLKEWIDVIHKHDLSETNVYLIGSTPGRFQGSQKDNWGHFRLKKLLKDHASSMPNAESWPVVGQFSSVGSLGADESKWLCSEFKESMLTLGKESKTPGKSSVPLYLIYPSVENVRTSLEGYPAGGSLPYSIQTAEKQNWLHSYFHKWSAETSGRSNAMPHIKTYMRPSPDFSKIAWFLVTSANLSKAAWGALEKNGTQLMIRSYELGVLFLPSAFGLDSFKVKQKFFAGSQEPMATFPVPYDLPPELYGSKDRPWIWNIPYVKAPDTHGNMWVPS

SMILES = O=C1C2CC3CC1CC(C(=O)N1CCN(c4ccc([N+](=O)[O-])c5ncccc45)CC1)(C3)C2; target or system = Salmonella typhimurium; test = Ames test; test system = TA98; conditions = 0.31 µg/well, without S9; quantity = mean revertant colonies; result = 6 colonies/well
SMILES = CC(C)(C)NCC(SS(=O)(=O)O)c1ccccc1 (centres unmarked); target or system = Schistosoma mansoni; test = perfusion day 35; test system = infected Swiss Webster mice; conditions = 100 mg/kg; quantity = body weight; result = 24.8 g and 25.9 g and 28.1 g
SMILES = Nc1nc2cc(C(=O)c3ccc(F)cc3)ccc2[nH]1; target or system = Escherichia coli; test = Ames preincubation test; test system = WP2 uvrA; conditions = 78.0 µg/plate, without S9; quantity = revertants; result = 45.3 revertants/plate
SMILES = O=C(O)CCCOc1ccc(O)cc1-c1cc(-c2ccccc2C(F)(F)F)n(-c2ccccc2)n1; target or system = Escherichia coli; test = Ames test; test system = WP2 uvrA; conditions = concentration not given, without metabolic activation; quantity = growth inhibitory concentration; result = 5000 µg/plate
SMILES = COC(=O)CC(C)c1nn(C)c2nc(N)[nH]c(=O)c2c1=O (centres unmarked); target or system = Escherichia coli; test = LC-MS/MS; test system = BW25113; conditions = 100 µM, 10 min, 37 °C; quantity = intracellular accumulation; result = 34.9 µM
SMILES = CCN(CC)CC#CCNc1ccnc2cc(Cl)ccc12; target or system = Salmonella typhimurium; test = mini-Ames test; test system = TA1535; conditions = 1000.0 µg/well, without S9; quantity = revertants; result = 1 revertants/well and 4 revertants/well
SMILES = Cn1nc(COC(=O)c2ccccc2)c(=O)c2c(=O)[nH]c(N)nc21; target or system = Escherichia coli; test = LC-MS/MS; test system = BW25113; conditions = 100 µM, 10 min, 37 °C; quantity = intracellular accumulation; result = < 0.78 µM
SMILES = O=C1NC2(CC2)COc2ncc(F)cc2[C@H]2COCCN2c2ccn3ncc1c3n2; target or system = Salmonella typhimurium; test = Ames test; test system = TA100; conditions = 50 µg/plate, 48 h, together with: without S9; quantity = revertant colonies; result = 73 ± 8 revertants/plate
SMILES = O=C(O)c1ccc(Nc2c(-c3ccccc3)nc3ccc(CON=Cc4ccc(OCC(=O)N5CCNC5=O)cc4)cn23)cc1; target or system = TDP1; test = enzyme activity, inhibitor; conditions = 100 µM, unpurified compound; quantity = inhibition; result = 113%
SMILES = COC(=O)CC(C)c1n[nH]c2nc(N)[nH]c(=O)c2c1=O (centres unmarked); target or system = Escherichia coli; test = LC-MS/MS; test system = BW25113; conditions = 100 µM, 10 min, 37 °C; quantity = intracellular accumulation; result = 7.35 ± 1.4 µM
SMILES = COC(=O)Nc1nc2cc(C(O)c3ccc(F)cc3)ccc2[nH]1 (centres unmarked); target or system = Salmonella typhimurium; test = Ames preincubation test; test system = TA1535; conditions = 54.7 µg/plate, without S9; quantity = revertants; result = 20.3 revertants/plate
SMILES = Cn1c(=O)n(C)c2cc([N+](=O)[O-])c(C=NOCc3ccc4nc(-c5ccccc5)c(Nc5ccc(C(=O)O)cc5)n4c3)cc21; target or system = TDP1; test = enzyme activity, inhibitor; conditions = 100 µM, unpurified compound; quantity = inhibition; result = 26.7%
SMILES = Nc1nc2[nH]nc(CCC(=O)O)c(=O)c2c(=O)[nH]1; target or system = Escherichia coli; test = LC-MS/MS; test system = BW25113; conditions = 100 µM, 10 min, 37 °C; quantity = intracellular accumulation; result = 1.38 ± 0.6 µM
SMILES = CC(C)OCCOCc1ccc(OCC(O)CN(N=O)C(C)C)cc1 (centres unmarked); target or system = Escherichia coli; test = Ames test; test system = WP2 uvrA; conditions = 158 µg/plate, 30 % rat S9; scale = reference: solvent control; quantity = revertant fold increase; result = 0.9 fold

A few entries again:
SMILES = CCN(CC)CC#CCNc1ccnc2cc(Cl)ccc12; target or system = Salmonella typhimurium; test = mini-Ames test; test system = TA1535; conditions = 1000.0 µg/well, without S9; quantity = revertants; result = 1 revertants/well and 4 revertants/well
